{"data": "Published values from different studies", "note": "Every numbered part comes from another study and shows a few of its results, in no order. Substitutions count along the parent as printed."}
{"data": "Set 1", "target": "CCNF, cyclin fold, Cln2 fusion (human)", "technique": "yeast growth competition, sequencing", "matrix": "yeast", "setting": "strong parent motif", "relative to": "not given", "direction": "higher = stronger binding", "starting sequence": "SAMHD1 docking peptide (human); ASKSRVQLFKDDP"}
{"Substitution": "D12Y", "normalised enrichment score": 2.56}
{"Substitution": "S4C", "normalised enrichment score": 6.47}
{"Substitution": "L8M", "normalised enrichment score": 0.245}
{"Substitution": "K10L", "normalised enrichment score": 1.26}
{"Substitution": "F9H", "normalised enrichment score": 0.363}
{"Substitution": "R5E", "normalised enrichment score": -0.446}
{"Substitution": "F9N", "normalised enrichment score": 0.355}
{"Substitution": "D12F", "normalised enrichment score": 1.27}
{"Substitution": "R5S", "normalised enrichment score": -0.114}
{"Substitution": "V6W", "normalised enrichment score": 0.0108}
{"Substitution": "D12C", "normalised enrichment score": 0.882}
{"Substitution": "D12G", "normalised enrichment score": 1}
{"Substitution": "D11I", "normalised enrichment score": 0.308}
{"Substitution": "Q7C", "normalised enrichment score": 1.34}
{"Substitution": "L8R", "normalised enrichment score": 0.0964}
{"Substitution": "S4Y", "normalised enrichment score": 3.24}
{"Substitution": "S4L", "normalised enrichment score": 2.19}
{"Substitution": "D11V", "normalised enrichment score": 0.842}
{"data": "Set 2", "target": "Sal-like protein 4, full length isoform A (SALL4, Homo sapiens, UniProt Q9UJQ4, residues 1-1053)", "technique": "universal PBM", "form": "double-stranded DNA, one strand shown", "matrix": "in vitro", "tested at": "600 nM", "setting": "8-mer, flanks averaged, mean of replicates", "direction": "higher = stronger binding", "sequence of UniProt Q9UJQ4 (whole entry, looked up)": "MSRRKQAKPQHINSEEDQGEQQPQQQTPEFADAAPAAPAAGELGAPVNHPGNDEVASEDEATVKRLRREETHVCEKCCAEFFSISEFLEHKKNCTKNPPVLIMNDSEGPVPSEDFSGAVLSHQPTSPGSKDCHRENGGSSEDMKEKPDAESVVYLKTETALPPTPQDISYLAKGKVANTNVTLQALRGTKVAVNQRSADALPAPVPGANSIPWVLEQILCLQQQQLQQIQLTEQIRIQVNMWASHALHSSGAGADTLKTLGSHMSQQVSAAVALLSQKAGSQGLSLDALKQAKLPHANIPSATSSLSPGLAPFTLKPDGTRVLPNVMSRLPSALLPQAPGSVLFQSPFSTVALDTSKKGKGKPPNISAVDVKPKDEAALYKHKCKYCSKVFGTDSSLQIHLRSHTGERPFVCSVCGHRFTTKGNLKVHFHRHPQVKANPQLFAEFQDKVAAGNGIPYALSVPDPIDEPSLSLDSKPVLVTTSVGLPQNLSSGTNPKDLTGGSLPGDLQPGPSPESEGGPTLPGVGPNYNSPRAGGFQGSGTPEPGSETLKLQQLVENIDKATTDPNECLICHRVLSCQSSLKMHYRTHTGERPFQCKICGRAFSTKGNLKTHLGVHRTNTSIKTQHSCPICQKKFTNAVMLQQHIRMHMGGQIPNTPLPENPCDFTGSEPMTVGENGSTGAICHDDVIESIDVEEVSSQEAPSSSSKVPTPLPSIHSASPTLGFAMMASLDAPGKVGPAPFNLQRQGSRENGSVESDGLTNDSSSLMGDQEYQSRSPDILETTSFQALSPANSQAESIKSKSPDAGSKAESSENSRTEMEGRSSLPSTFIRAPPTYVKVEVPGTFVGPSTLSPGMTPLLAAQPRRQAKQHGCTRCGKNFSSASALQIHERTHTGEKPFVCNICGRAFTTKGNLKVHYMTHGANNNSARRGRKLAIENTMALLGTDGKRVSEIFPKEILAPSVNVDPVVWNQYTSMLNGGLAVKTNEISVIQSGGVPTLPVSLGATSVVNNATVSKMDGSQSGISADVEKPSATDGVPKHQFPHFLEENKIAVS"}
{"Oligonucleotide": "AATAGGAT", "E-score": 0.289}
{"Oligonucleotide": "GCTGGCCA", "E-score": -0.242}
{"Oligonucleotide": "ATTACCCG", "E-score": -0.00619}
{"Oligonucleotide": "GGCGATCA", "E-score": -0.136}
{"Oligonucleotide": "CGGAGTAC", "E-score": -0.186}
{"Oligonucleotide": "AATTGGGA", "E-score": 0.102}
{"Oligonucleotide": "CAGCGACG", "E-score": -0.283}
{"Oligonucleotide": "AATTACCG", "E-score": 0.0986}
{"Oligonucleotide": "CAAGACTG", "E-score": 0.101}
{"Oligonucleotide": "CTGGAATC", "E-score": -0.0716}
{"Oligonucleotide": "AATCGCGA", "E-score": -0.00715}
{"Oligonucleotide": "ATACTGTG", "E-score": -0.0163}
{"Oligonucleotide": "ACAATATC", "E-score": 0.339}
{"Oligonucleotide": "AGCTTGGC", "E-score": -0.235}
{"Oligonucleotide": "ATTCACTA", "E-score": 0.128}
{"Oligonucleotide": "CAAAAAAG", "E-score": 0.195}
{"Oligonucleotide": "ACCTAAAA", "E-score": 0.0451}
{"Oligonucleotide": "AACGTCAG", "E-score": -0.0763}
{"Oligonucleotide": "GACGCAAC", "E-score": -0.148}
{"Oligonucleotide": "CCCTTCAG", "E-score": -0.168}
{"Oligonucleotide": "GACTGATA", "E-score": 0.0461}
{"Oligonucleotide": "GAGATACC", "E-score": -0.0381}
{"Oligonucleotide": "CCGCAAGA", "E-score": -0.091}
{"data": "Set 3", "target": "ABI1, truncated, D143A, DHFR fusion (Arabidopsis thaliana)", "technique": "DHFR PCA, deep sequencing", "matrix": "yeast", "setting": "methotrexate growth selection, single substitutions", "added": "(+)-ABA 710 µM", "relative to": "wild-type fitted maximum", "direction": "higher = stronger binding", "starting sequence": "PYL1, truncated, DHFR fusion (Arabidopsis thaliana); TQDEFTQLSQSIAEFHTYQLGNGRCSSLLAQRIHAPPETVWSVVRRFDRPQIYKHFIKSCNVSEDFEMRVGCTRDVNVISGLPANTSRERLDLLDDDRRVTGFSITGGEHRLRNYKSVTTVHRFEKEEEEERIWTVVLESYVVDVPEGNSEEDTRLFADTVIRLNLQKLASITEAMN; partner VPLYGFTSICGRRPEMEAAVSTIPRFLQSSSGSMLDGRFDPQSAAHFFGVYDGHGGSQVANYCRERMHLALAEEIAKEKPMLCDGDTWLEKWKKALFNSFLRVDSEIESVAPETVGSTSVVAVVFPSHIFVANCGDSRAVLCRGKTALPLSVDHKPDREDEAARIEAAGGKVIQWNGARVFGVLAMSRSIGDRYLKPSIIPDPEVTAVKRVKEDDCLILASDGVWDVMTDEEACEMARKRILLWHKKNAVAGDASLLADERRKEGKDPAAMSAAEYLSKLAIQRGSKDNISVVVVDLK"}
{"Substitution": "V142C", "relative binding score": "102%"}
{"Substitution": "R46D", "relative binding score": "88.2%"}
{"Substitution": "W134T", "relative binding score": "112%"}
{"Substitution": "I162G", "relative binding score": "33.2%"}
{"Substitution": "W134S", "relative binding score": "114%"}
{"Substitution": "D159P", "relative binding score": "-0.224%"}
{"Substitution": "V121G", "relative binding score": "9.71%"}
{"Substitution": "I162F", "relative binding score": "-11.8%"}
{"Substitution": "I172N", "relative binding score": "78.3%"}
{"Substitution": "D153C", "relative binding score": "78.4%"}
{"Substitution": "S59T", "relative binding score": "99%"}
{"Substitution": "C25P", "relative binding score": "55%"}
{"Substitution": "R90T", "relative binding score": "97.5%"}
{"Substitution": "P146T", "relative binding score": "76.8%"}
{"Substitution": "V121F", "relative binding score": "10.2%"}
{"data": "Further values, each from its own experiment"}
{"Substance": "PhoQ, residues 284 288 289 292 302 303 TLSLKA", "target": "PhoP, residues 12 14 15 18 19 VHTVL (Escherichia coli, UniProt P23836)", "test": "Sort-seq, refers to: YFP reporter", "system": "E. coli", "setting": "PhoQ-PhoP variant library, added: 10 µM Mg2+", "how to read": "relative to: high Mg2+ state, higher = stronger signaling", "quantity": "fold induction", "value": 1.15}
{"note": "Repeated from above (set 2):"}
{"Oligonucleotide": "AATAGGAT", "E-score": 0.289}
{"Oligonucleotide": "GCTGGCCA", "E-score": -0.242}
{"Oligonucleotide": "ATTACCCG", "E-score": -0.00619}
{"Oligonucleotide": "GGCGATCA", "E-score": -0.136}
{"Oligonucleotide": "CGGAGTAC", "E-score": -0.186}
{"Oligonucleotide": "AATTGGGA", "E-score": 0.102}
{"Oligonucleotide": "CAGCGACG", "E-score": -0.283}
{"Oligonucleotide": "AATTACCG", "E-score": 0.0986}
{"Oligonucleotide": "CAAGACTG", "E-score": 0.101}
